# Published values gathered from unrelated publications.
# Every numbered part comes from another study and shows a few of its results, in no order.
# UniProt P48431, sequence (37-118, looked up): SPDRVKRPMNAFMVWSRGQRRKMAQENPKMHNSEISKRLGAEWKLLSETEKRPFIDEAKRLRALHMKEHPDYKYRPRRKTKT

# Sample 1
# Target: Interferon regulatory factor 3, full length, phosphomimetic (IRF3, Homo sapiens, UniProt Q14653, residues 1-427, S386D/S396D/S398D/S402D/T404D/S405D)
# Technique: protein-binding microarray
# Molecule type: double-stranded DNA, one strand shown
# Sample: in vitro
# Concentration: 2540 nM top
# Notes: 60-bp whole probe
# Together with: salmon DNA 0.4 mg/ml
# Relative to: random background probes
# Reading: higher = stronger binding
# Shared flanks, not repeated: GCCTAGCAC … GTGCTAGGTCTTGATTCGCTTGACGCTGCTG
# Target sequence (chain): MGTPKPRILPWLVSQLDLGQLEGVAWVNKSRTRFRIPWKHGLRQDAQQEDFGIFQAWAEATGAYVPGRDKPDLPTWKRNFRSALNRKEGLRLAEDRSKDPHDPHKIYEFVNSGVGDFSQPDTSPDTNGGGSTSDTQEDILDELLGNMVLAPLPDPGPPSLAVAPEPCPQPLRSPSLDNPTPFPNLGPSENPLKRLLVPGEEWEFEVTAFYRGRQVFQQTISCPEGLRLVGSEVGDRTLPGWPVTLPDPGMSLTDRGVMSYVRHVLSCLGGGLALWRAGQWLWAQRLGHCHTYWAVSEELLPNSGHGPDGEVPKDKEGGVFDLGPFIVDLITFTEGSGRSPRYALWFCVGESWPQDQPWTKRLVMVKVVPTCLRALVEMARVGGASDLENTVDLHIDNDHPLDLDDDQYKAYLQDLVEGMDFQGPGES
Oligonucleotide,fitted relative affinity [z-score]
AATTACATTTCATAGAGTGT,1.28
GACTGTTTCGGACTGGGGAC,3.74
TTAGATCTCAGTATCGATTC,1.6
TCATGTGTAGGTCTTAAACT,-0.396
GACGATTTGAGTTCCGAGAC,0.435
GTCGGTTTCGGTATCGGGAC,9.24
GACGTTTTCAGTTTCGAGAC,4.57
TTAGGTTTCGTTTCCGGTTA,8.88

# Sample 2
# Target: Replicase polyprotein 1ab, main protease (rep, Severe acute respiratory syndrome coronavirus 2, UniProt P0DTD1)
# Effect on: enzyme activity
# Mode: inhibitor
# Concentration: 20 µM
# Notes: hit confirmation
SMILES,inhibition [%]
Nc1cc(-c2ccncc2)c[nH]c1=O,40.6
COc1cc2c(cc1OC(C)C)[C@H](c1ccc(Cl)cc1)N(c1ccc(N(C)C[C@H]3CC[C@H](N4CCN(C)C(=O)C4)CC3)cc1)C(=O)C2,24.2
CC(Cc1ccc(O)c(O)c1)(NN)C(=O)O (centres unmarked),94.5

# Sample 3
# Target: Centromere-binding protein 1, full length, N-terminal tag (CBF1, Saccharomyces cerevisiae, UniProt P17106, residues 1-351)
# UniProt P17106, sequence (whole entry, looked up): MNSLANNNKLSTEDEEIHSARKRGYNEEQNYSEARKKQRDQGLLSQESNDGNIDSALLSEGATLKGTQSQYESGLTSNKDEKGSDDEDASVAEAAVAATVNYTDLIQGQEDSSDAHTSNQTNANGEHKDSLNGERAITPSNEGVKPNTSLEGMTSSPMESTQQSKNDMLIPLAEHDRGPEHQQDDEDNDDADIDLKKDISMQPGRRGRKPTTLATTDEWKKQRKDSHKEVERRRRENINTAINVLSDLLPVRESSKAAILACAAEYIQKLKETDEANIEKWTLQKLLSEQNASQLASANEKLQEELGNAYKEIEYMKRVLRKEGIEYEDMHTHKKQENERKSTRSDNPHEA
# Technique: protein-binding microarray
# Molecule type: double-stranded DNA, one strand shown
# Sample: in vitro
# Concentration: 0.8 µM
# Notes: whole 60-bp probe, no competitor
# Reading: higher = stronger binding
# Shared flanks, not repeated: … GTCTTGATTCGCTTGACGCTGCTG
Oligonucleotide,fluorescence intensity [a.u.]
CTAATTGGATGCTAAGACGTGATAGAGCTGGTTTTC,544
CTAATTGAATTAAGTAACATCATTGTTTAACTTTTC,477
CTAGGCGAAACAAAGGTGATGAAAGTTTCTTCTTTC,517
GAAGAAAAGTTCGGTAACATCAAATCAGTGCTTTAG,522
CTAGCCGATTCTAATCATGTGACTCCTTTTCCCTTC,8230
GAACTTCTCCGTATTTACACCACCAGAAGCGTTTAG,531
GAATCTGAAGTACGTCACCTTGCAATTGAATATTAG,526
GAAATTTTGAAATGCGTACACGTGAATTTTAGCTAG,3600

# Sample 4
# Cell line: HEK-293T/ACE2
# Concentration: concentration not given
# Time: 16 (unit not given)
# Relative to: vehicle
SMILES,viability
CNS(=O)(=O)Cc1ccc2[nH]cc(CCN(C)C)c2c1,97.8%
COC(=O)/C=C/C(=O)OC,104%
Cc1cc(-c2ccc(/N=N/c3ccc4c(S(=O)(=O)O)cc(S(=O)(=O)O)c(N)c4c3O)c(C)c2)ccc1/N=N/c1ccc2c(S(=O)(=O)O)cc(S(=O)(=O)O)c(N)c2c1O,101%
c1ccc2c(CC3=NCCN3)cccc2c1,93.1%
Nc1ccn(C[C@@H](CO)OCP(=O)(O)O)c(=O)n1,104%

# Sample 5
# Target: Replicase polyprotein 1ab, polymerase (rep, Severe acute respiratory syndrome coronavirus 2, UniProt P0DTD1)
# Effect on: enzyme activity
# Mode: inhibitor
# Concentration: 20 µM
SMILES,inhibition [%]
O=C1NCCN1CCN1CCC(c2cn(-c3ccc(F)cc3)c3ccc(Cl)cc23)CC1,1.21
CN1C(=O)CC[C@H]1c1cccnc1,-2.24
Oc1nc(O)c2nc(O)[nH]c2n1,12
CN(C)CC[C@@]1(c2ccc(Cl)cc2)Cc2ccccc2C(=O)O1 (racemic),1.73
CCCCCCCCCCCCOCCOCCOCCOCCOCCOCCOCCOCCOCCO,30.1
Nc1c(-c2cccc(C(F)(F)F)c2)nsc1C(=O)O,0.54
CN[C@H]1C[C@@H](N)[C@H](O)[C@@H](O[C@@H]2O[C@H](CO)[C@H](O)[C@@H]3OC4(O[C@H]23)O[C@H]([C@@H](N)CO)[C@H](O)[C@H](O)[C@H]4O)[C@@H]1O (some centres unmarked),-2.52
C=CCNc1ncnc2ccc(Br)cc12,4.63
O=C(CN1CCN(C(=O)c2ccco2)CC1)Nc1cc(C(F)(F)F)ccc1Cl,-2.18
CC(=O)Nc1ccc(Cc2ccc(NC(C)=O)cc2)cc1,-2.97
COc1ccc(C(=O)Nc2sc3c(c2C(N)=O)CCCC3)cc1OC,0.59
C[C@]12CC[C@@H]3c4ccc(OS(=O)(=O)O)cc4CC[C@H]3[C@@H]1CCC2=O,-8.05
Cc1ccc(-c2ncc[nH]2)cc1NC(=O)c1ccc(OCc2ccccn2)cc1,-12.6
OCc1c[nH]c2ccccc12,-0.39
N[C@@H](C(=O)O)[C@@H](OCc1ccccc1)C(=O)O,2.07
C[n+]1ccccc1C=NO,-1.78
CCc1cc2c(cc1N1CCC(N3CCOCC3)CC1)C(C)(C)c1[nH]c3cc(C#N)ccc3c1C2=O,5.38
CN(C)CCC(O)(c1ccccc1)c1ccccc1Cl (centres unmarked),-10.9
Cc1nccc2[nH]c(=O)ccc12,-7.22
COCCOc1cnc2ccn([C@H](C)c3nnc4c(F)cc(-c5cnn(C)c5)cn34)c(=O)c2c1,2.73
CCN(CC)CCNC(=O)COc1ccc(OC)cc1,2.81
CCn1c(=O)/c(=C2\Sc3ccccc3N2C)s/c1=C\c1cccc[n+]1CC,97.8
C1=Cc2cccc(OCC3CNCCO3)c2C1 (centres unmarked),-0.55
C[C@H]1N=C(N(C)C)N=C(N)N1,-5.59
Fc1ccc(CNc2ncnc3ccc(F)cc23)cc1,3.53

# Other studies, line by line
# Technique: protein-binding microarray
# Molecule type: hairpin DNA
# Sample: in vitro
# Concentration: not given
# Notes: whole hairpin DNA, median over replicate spots
# Relative to: not given
# Reading: higher = stronger binding
# KLF3 full length: Krueppel-like factor 3, full length (KLF3, Homo sapiens, UniProt P57682, residues 1-345)
# UniProt P57682, sequence (whole entry, looked up): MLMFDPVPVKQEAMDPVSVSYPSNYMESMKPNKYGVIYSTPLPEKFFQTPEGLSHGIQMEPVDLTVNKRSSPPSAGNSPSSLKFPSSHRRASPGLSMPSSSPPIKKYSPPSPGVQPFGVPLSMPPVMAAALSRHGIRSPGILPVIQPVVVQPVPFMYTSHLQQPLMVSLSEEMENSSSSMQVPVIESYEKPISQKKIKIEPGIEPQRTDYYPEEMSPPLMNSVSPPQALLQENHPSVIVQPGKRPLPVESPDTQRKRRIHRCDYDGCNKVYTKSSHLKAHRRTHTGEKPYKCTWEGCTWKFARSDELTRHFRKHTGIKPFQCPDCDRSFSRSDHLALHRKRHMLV
Oligonucleotide,target,median fluorescence [a.u.]
GCAGGCCCACCGTGGGCCTCCTGGCCCACGGTGGGCCTGCACACTCTTTCCCTACACGAC,"Transcription factor SOX-2, HMG box (SOX2, Homo sapiens, UniProt P48431, residues 37-118)",2410
GAGGCCGACCGCGCCGAGCCTCCTGGCTCGGCGCGGTCGGCCTCACACTC,KLF3 full length,8530
GAGGCCGACCACCGCCAGCCTCCTGGCTGGCGGTGGTCGGCCTCACACTC (5mC at 13 31),KLF3 full length,8470
CGGACCGGCCCGGGCATGTCTCCTGACATGCCCGGGCCGGTCCGACACTC (5mC at 38),"Cellular tumor antigen p53, full length (TP53, Homo sapiens, UniProt P04637, residues 1-393)",12200

# A few entries again (other studies, line by line):
Oligonucleotide,target,median fluorescence [a.u.]
GAGGCCGACCGCGCCGAGCCTCCTGGCTCGGCGCGGTCGGCCTCACACTC,KLF3 full length,8530
GAGGCCGACCACCGCCAGCCTCCTGGCTGGCGGTGGTCGGCCTCACACTC (5mC at 13 31),KLF3 full length,8470
CGGACCGGCCCGGGCATGTCTCCTGACATGCCCGGGCCGGTCCGACACTC (5mC at 38),"Cellular tumor antigen p53, full length (TP53, Homo sapiens, UniProt P04637, residues 1-393)",12200
